Published values of several laboratories.
Every numbered part comes from another study and shows a few of its results, in no order. Positions count from the first letter of the parent shown.

Series 1 — technique: RNA Bind-n-Seq; molecule type: RNA; matrix: in vitro; concentration: 200 nM; notes: whole 134-nt RNA, ends assumed; together with: 150 mM LiCl; baseline: input library; direction: higher = stronger binding; each molecule: 7-deaza-guanosine replaces G
Target: Ras GTPase-activating protein-binding protein 1, full length (G3BP1, Homo sapiens, UniProt Q13283)
Sequence of UniProt Q13283 (whole entry, looked up): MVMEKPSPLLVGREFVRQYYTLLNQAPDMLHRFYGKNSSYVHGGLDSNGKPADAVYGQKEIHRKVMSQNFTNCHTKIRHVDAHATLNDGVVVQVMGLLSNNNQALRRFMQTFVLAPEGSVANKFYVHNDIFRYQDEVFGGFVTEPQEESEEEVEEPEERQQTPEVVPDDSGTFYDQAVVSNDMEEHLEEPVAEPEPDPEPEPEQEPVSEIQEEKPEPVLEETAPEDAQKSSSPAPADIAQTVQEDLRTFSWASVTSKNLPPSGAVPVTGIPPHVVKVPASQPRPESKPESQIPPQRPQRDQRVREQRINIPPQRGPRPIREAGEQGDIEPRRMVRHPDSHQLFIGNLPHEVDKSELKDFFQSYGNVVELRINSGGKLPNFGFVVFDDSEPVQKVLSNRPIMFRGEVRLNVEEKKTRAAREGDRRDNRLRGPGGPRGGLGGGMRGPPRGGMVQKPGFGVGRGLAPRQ
Shared flanks, not repeated: GGGAGUUCUACAGUCCGACGAUC … UGGAAUUCUCGGGUGUCAAGG
| Strand | log2 enrichment |
| --- | --- |
| GCAGGAAGUAAAAACAAAUGGAAAUGCUUCGGAUAGUGGCAGGGGUGGCGGUUGCUAAGGAAAGGGUGGGAUGGGAGUGGGUAAAGAGUU | 0.145 |
| UGGGAGGUGGAUUUUGUUUAUUUUUUUAGCUCAUUUCCAGGGGUCGGAAUUUUUUUUUAAUAUGUGUCAUGAAUAAAGUUGUUUUUGAAA | -0.717 |
| ACCAUGCAGGUGGGCAUCUUUGGGAAGCGGGGCAAGGGGGGGAUAGGGAGGGGGGUAACACUUUGGGAACAGGUGGUCCCAGGUCGUUUC | 0.125 |
| UUAAAGAAAUGUCCACAAGUAACUUUGAAUCAUCUCCUGAAGUAGAAGAAAGGCCUGCUGUGUCUUUGACUCUUGAUCAGAGCCAGUCAC | -1.2 |
| ACCAUGCAGGUGGGCAUCUUUGGGAAGUGGGGCAAGGGGGGGAUAGGGAGGGGGGUCACACUUUGGGAACAGGUGGUCCCAGGUCGUUUC | 0.287 |
| UGUGCUACACAUCGUAUGUACCGAAUCGGGGUUUUUGGGGAAAAAAAGGGGAAAAAAAGGGGAAAGUAUUAUGUUACGCCGUUCGGAUCU | -0.0379 |
| UCCUGUGCUACACAUCGUAUGUACCGAAUCGGGGUGGGGUUUUUGGGGAAAAAAAGGGGAAAGUAUUAUGUUACGCCGUUCGGAUCUGCA | -0.882 |
| ACCAUGCAGGUGGGCAUCUUUGGGAAGUGGGGCAAGGGGGGGAUAGGGAGGGGGGUAACACUUUGGGAACAGGUGGUUCCAGGUCGUUUC | 0.0646 |

Series 2 — technique: protein binding microarray; molecule type: double-stranded DNA, one strand shown; matrix: in vitro; concentration: not given; baseline: not given; direction: higher = stronger binding
Target: Histone acetyltransferase KAT6A, winged helix 2, GST fusion (KAT6A, Homo sapiens, UniProt Q92794, residues 85-181)
Notes: 8-mer, flanks averaged, mean of 2 arrays, mostly near background
Target sequence (chain): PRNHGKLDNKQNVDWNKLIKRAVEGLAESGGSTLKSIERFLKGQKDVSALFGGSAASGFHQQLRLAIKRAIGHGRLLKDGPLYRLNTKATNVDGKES
| Strand | E-score |
| --- | --- |
| CCGGCCCA | 0.0454 |
| TGACACCA | 0.0408 |
| TCCTTGAA | -0.196 |
| ACGACAAC | -0.00146 |
| GTGGCAGA | -0.0797 |
| CTGTTCGC | 0.161 |
| CGTCGTAG | -0.0365 |
| AGACGGAT | -0.0103 |
| AACCATAC | -0.0282 |

Series 3 — target: CCNE2, cyclin fold, Cln2 fusion (human); technique: yeast growth competition, sequencing; matrix: yeast; notes: strong parent motif; baseline: not given; direction: higher = stronger binding
Starting sequence: INSM1 docking peptide (human); PKAIRKLHFEDEV; partner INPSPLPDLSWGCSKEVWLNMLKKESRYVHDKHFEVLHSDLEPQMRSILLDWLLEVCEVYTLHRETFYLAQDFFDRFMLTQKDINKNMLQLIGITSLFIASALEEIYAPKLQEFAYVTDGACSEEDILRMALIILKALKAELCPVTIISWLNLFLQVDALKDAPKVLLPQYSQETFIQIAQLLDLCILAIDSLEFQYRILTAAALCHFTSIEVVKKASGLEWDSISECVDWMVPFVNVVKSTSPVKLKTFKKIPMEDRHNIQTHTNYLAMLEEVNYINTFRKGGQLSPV
| Change | normalised enrichment score |
| --- | --- |
| A3D | -0.25 |
| D11A | 1.77 |
| L7R | 0.336 |
| E10F | 1.14 |
| K6G | -0.257 |
| D11N | 1.91 |
| D11M | 1.44 |
| F9V | -0.0735 |
| E10G | 2.85 |
| A3N | -0.338 |

Other studies, line by line
| Molecule | target | assay | test system | conditions | how to read | quantity | result |
| --- | --- | --- | --- | --- | --- | --- | --- |
| PhoQ, residues 284 288 289 292 302 303 SMYGEC | PhoP, residues 12 14 15 18 19 SMASL (Escherichia coli, UniProt P23836) | Sort-seq, measured: YFP reporter | E. coli | PhoQ-PhoP variant library, together with: 10 µM Mg2+ | baseline: high Mg2+ state, higher = stronger signaling | fold induction | 5.83 |

Some of these lines once more (series 3):
| Change | normalised enrichment score |
| --- | --- |
| E10G | 2.85 |
| A3D | -0.25 |
